Experimental data collected from several papers.
Numbered parts are unrelated; each lists some results of a single study.

Set 1
Target: Interferon regulatory factor 5, full length, phosphomimetic (IRF5, Homo sapiens, UniProt Q13568-2, residues 1-514, K96S/S451D/S453D/S456D/S462D)
Technique: protein-binding microarray
Form: double-stranded DNA, one strand shown
Matrix: in vitro
Concentration: 250 nM
Setting: 60-bp whole probe
Together with: salmon DNA 0.4 mg/ml
Relative to: random background probes
Reading: higher = stronger binding
Endpoint: log fluorescence
Shared flanks, not repeated: GCCTAGCAC … GTCTTGATTCGCTTGACGCTGCTG
TTAGATCTCAGTCTCGATTCGTGCTAG: 0.68 z-score
TTAGGAGTGGGTATCGGTTAGTGCTAG: 4.5 z-score
TTAGGTTTCCTACGGCTTTAGTGCTAG: 0.213 z-score
GATGGTTTCCTTATCCTGACGTGCTAG: 1.1 z-score
TCTGTAATTCTTAGAACAGCGTGCTAG: -0.125 z-score
TTAGGACTGCGGTATCGGTTAGTGCTA: 3.11 z-score
TCACCCCTCCCCCTCAGACTGTGCTAG: -0.244 z-score
TCACCATCCTGTATGGAACTGTGCTAG: 0.0158 z-score
GCCGGTATCCTACTGCTGACGTGCTAG: -0.218 z-score
GACGGCATCGGGACTGGGGACGTGCTA: -0.519 z-score
GACGATATCGGGAGTGGAGACGTGCTA: 0.898 z-score
TCAAGAGTAGCTTTCTGACTGTGCTAG: 0.442 z-score
TCATGTATATATTTTAAACTGTGCTAG: 0.47 z-score
CTTTTATTAGTGACTCAGCACGTGCTA: 0.65 z-score
TCAGTATTTTTTCTGAAACTGTGCTAG: 1.07 z-score
GTGAGTTTGACATCTTCATCAGTGCTA: 0.138 z-score
TCAAATTTAGAAAATGGAACTGTGCTA: 0.346 z-score
TTAGATTTCAGATTCGATTAGTGCTAG: 1.68 z-score
GACGAACTTAGACTGGAGACGTGCTAG: -0.503 z-score
GGCGGTATCGGTATCGGGACGTGCTAG: 6.45 z-score
GACGGTGTCCTTTCCCTGACGTGCTAG: -0.118 z-score
GACGATATCGGGTATCGAGAAGTGCTA: 3.01 z-score
GACGATTTGGGGTTTCGAGACGTGCTA: 1.31 z-score
GACGGTTTCGGACTTGGGACGTGCTAG: 3.68 z-score
CACCACATTTTTTTCATTATGTGCTAG: 1.45 z-score

Set 2
Target: RING finger protein unkempt homolog, zinc fingers 1-6, GST-SBP tag (UNK, Homo sapiens, UniProt Q9C0B0, residues 30-357)
UniProt Q9C0B0, sequence (30-357, looked up): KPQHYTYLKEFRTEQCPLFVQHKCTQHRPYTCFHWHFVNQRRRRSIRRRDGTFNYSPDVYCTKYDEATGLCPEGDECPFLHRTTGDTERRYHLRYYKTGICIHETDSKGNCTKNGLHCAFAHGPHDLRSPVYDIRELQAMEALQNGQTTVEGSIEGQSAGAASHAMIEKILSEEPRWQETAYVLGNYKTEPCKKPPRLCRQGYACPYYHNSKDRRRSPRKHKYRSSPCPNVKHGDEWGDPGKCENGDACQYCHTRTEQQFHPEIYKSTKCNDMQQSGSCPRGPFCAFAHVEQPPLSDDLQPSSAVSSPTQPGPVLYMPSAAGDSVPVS
Technique: RNA Bind-n-Seq
Form: RNA
Matrix: in vitro
Concentration: not given
Setting: RNA with constant flanks, ends assumed
Relative to: input RNA pool
Reading: higher = stronger binding
Endpoint: bound/input enrichment
Shared flanks, not repeated: GGGAGUUCUACAGUCCGACGAUC … CAACAGAGGAUUGAGCAUCA
GCAAGUAACAAUCGCUUAUUCCAGCUCGUAAUGAAGGGCCUACUUUAUGAAUGCUGCGCCGAAUUUUGUCAGAGUAAAGCAACUGGUGAAGAAAUUACAGAAAGUGAAGUCCUUCUUGGC: 0.167 ratio
GCUCCACCUGCCCCAGCUCUGCCCGGUGUGGAAGAAGCAAGUGUCCUAAGCACCUAACUCCCGUUUUGUUACAAGUAUAACUUAGGAGAAAAAAUUGGUAGAAAUAAUACAGUAUGUUGC: 19.9 ratio
UAUUUGUGUAAAGUAUGCAUGCAGUCUUGUACUGUGACCUAAGAACAAAACUGUAACUGCAUCCGAAACCAUGAAAAAAUUAGAUAUUGUUUUGUGACUUUUAGACAGUGGUAAAUAUAG: 4.42 ratio
GCCAUAAUCCCCUACAUCCCUACUCUCAUCACUCAGCUUACACAGAAGCUAUUAGCUGUCCGUAAGAACCCAAGCAAACCUCACUUUAAUCACUACAUGUUUGAAGCAAUAUGUUUAUCC: 0.511 ratio
AUAUUUCAUAUUGCAAAGAUGUUUACAAGUAUUUUAAUUUAAGUUCAGUGAACUUUUUUGCCGCUGGGUUAAAUCUUUUUAUUUUUAGUAUGGCCUUAUGGCAAAGAACACUGUAUUAUU: 2.18 ratio
AUUUCACAAAGCUCCCGAAUCUGGCUUUGUCCUCACUGUCGGAGGUCAGAGAAGCCUCCAUCCGAGAAAAUUCUGCCUCUGCUGGCCUCCCUACAGCGUAUACGAGUUCGUCUUCCUGAA: 0.175 ratio
AGUUUGGGCUUUGGCUCUUACAUCAGUGAAGUAAAAGAAGUCUUACAAGAAUGCAAGACAGCCGCAUUAAAAAGAAGAAAGGCCAGUUCUCGUUUGGAAAACCUCGGCAUUCCUGAAGAG: 0.123 ratio
AAGGAGGCAGAGGGUCAGAGCUUGGUGGUUUAUCUUUUCCUUGUUUCUCCUUGUUUCUGUUUCCGAAAUGAAGUGUGGGGGUUUAAAUGGCACUUAAACUGCACCCUGGAGCCGGCAGAA: 0.32 ratio
CCUUGGCCGACUACACCAGAGAAUACACAUUCAGUGACAUCUUGCUGAUGCUGUGCUUGCCCGUACUGCCAAGGCGAGUGUGUGGCCUUUCUUUCCAGCUCUCUGCAGAGAUGCUGGGGA: 0.124 ratio
ACGUCAGAUGACCUGACUGUUGUAGAUGCAGCUUCACUAAGACGACAGAUAAUCAAACUAAACCGACGUCUACAACUUCUGGAAGAGGAGAACAAAGAACGUGCUAAAAGAGAAAUGGUC: 0.234 ratio
UUCUUCACCCGUAACCAUCUGCCUGUACCUAACCUGGACCCACACACCUAUCGCUUACAUGCCGCCGGGGCACCUGGAGGUCAGUCACUGUCUCUGUCCUUGGAUGAUUUGCAUAAGUUU: 0.242 ratio

Set 3
Target: RNA binding protein fox-1 homolog 2, RRM domain, GST-SBP tag (RBFOX2, Homo sapiens, UniProt O43251-10, residues 100-194)
Technique: RNA Bind-n-Seq
Form: RNA
Matrix: in vitro
Concentration: 365 nM
Setting: natural RNA segment, single round, ends assumed
Relative to: no-protein control
Reading: higher = stronger binding
Endpoint: RBNS enrichment (R)
Shared flanks, not repeated: GGGAGUUCUACAGUCCGACGAUC … UGGAAUUCUCGGGUGCCAA
Target sequence (chain): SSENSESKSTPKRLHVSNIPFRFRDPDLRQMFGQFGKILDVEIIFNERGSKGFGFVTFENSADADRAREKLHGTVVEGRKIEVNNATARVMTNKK
GUCCCAAGUUCUUCAGUUACAACCUAGUAGUAUACUUACUCUUCCAACUGUCCUAAGGUCACUUCCCAGCCAGCUUAGGAUCUUCAGCAUUUUUAAGAGCUGAAGCUCCC: 0.594
CAGCACAAAUAAGAUGUUCAAGUGAGCCAGAAGCAAGAAGAGCCAUUUUAGUCUUCAUAGCUAUUGGCUAAGAGAGAUAAUGAGCUGAUGGUCUAUUUUAACCUUGAAAG: 0.444
CAUUUUAAUUACUUGCAAAUUAAGUUACCACAGACUCUGUAGUGUGUAAAUGUUGACAAGGAAUUGGAUCACAAUCAUGUAGCAGAAUGGCACCCAGACCACUGCCCACC: 0.411
AGCACUGCUCCGUAUAUAAGUUAAUUUGUAAAUCCGGAGCAGACGGCAUGCUAAGUCCUGUAAUUCCCUCUAACAUUGAGUCAGAUACAUCAUGGGACAUCAUGGGAUGG: 0.667
UGAGUGUGAUCAAAUCUAGUCUCACUCCCACUUUUUAGUCUCACUCCUACUUUUGUCCACCACCCCUGCCUCCUGGAUCUUCUCCCACUUUUUUUUUCAGCUUUAGGACC: 1.06
AAGCAGAUGACAGAAAUGGUUUCAGCAGUUUGUGCUGUAACCAUGCCUAGAGCAAGAAACCUGCUCAGUUUUAUAAGCUCCCUUCCCAACCAAAAUGGCUUAUCGUCAUU: 0.246
GCACUAGGUGUUUGGAGGUGAGCUAGGAAGACCAGUGGUAUGUUGAGCCCCUUACAGAUAAGCACCGGUGUCUCUUUGGUGCACCUUGCCUUCAGAUGCUCCUGGUGGUC: 1.32
ACAUGGAGCUCUUCCAUUUCGUUUAGCUGAAUAAUGAGUUGUUCCUAGAGGAGACAGCCUGUCUCUCCUUGUUGCCCCCAAAGCCCAUGCCCUGCCGUGGUGGCAGCUGG: 0.265
UGGCAGCUUAACAUUGACUUCUUGGUUUGGGGAGAAAUAAAUUUUGUUUCAGAAUUUUGUAUAUUGUAGGAAUCCUUUGAGAAUGUGAUUCCUUUUGAUGGGGAGAAAGG: 2.23
ACUCUACACACUUCCUAGUCACGCAGGAUCCCUGUAGCCAAAACAGUAUAUGUUCCAGCUGCAGAGAGCAGACUGCUCUCAGCUUGCCUAGCACCUUAGGGGAGGGAAGA: 0.418
UUUUUGUUUUUAAAUGAAGACCUCUGAAAAGCACAGGGCCUCUGCUCCUUCUGGCUCUGAUGUCCUGUGACUGUAGUGUCACCACCUCCCCUGGGAGUCAGACCAGGGAC: 0.241
UGUUCUUUGUGGACUAUUUCAGACAACCAGGUUCCGACAGUCCAGCCCAGAACUUUUCCUUCUCAUUUUGGGUUUUCUCUUCUCCUGCUUUCCUGGGGAGAGAUUAAGCG: 0.366

Set 4
Target: Histone acetyltransferase KAT6A, both winged helices, GST fusion (KAT6A, Homo sapiens, UniProt Q92794, residues 1-181)
Technique: protein binding microarray
Form: double-stranded DNA, one strand shown
Matrix: in vitro
Concentration: not given
Setting: 8-mer, flanks averaged, mean of 2 arrays, mostly near background
Relative to: not given
Reading: higher = stronger binding
Endpoint: E-score
Residues (chain): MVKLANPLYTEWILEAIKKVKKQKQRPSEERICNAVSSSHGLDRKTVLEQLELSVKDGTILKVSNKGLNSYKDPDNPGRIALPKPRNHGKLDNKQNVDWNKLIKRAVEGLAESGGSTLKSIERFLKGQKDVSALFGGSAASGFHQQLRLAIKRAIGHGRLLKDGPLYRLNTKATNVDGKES
CTTCCACA: -0.163
GTTTGACA: -0.0405
AACTGTTA: 0.0805
CCGATTAC: 0.131
GACCTTCA: -0.0515
CGGGCACC: 0.234
AGGACCAA: -0.114
ACTGACTC: -0.0631
AACAGTCA: -0.0227
TCAGGTAA: -0.263
AAATAGCC: 0.0589
AATCGGGC: 0.0334
CAGATTCC: 0.0324
CAAGTTGA: -0.146
GAACTTAA: -0.015
GCGAATAA: 0.112
ATTTTTTA: -0.0774
CGTCGGAG: 0.217
CGATACCG: 0.189
TCGCCCCA: -0.251
CTACCGCA: 0.212
TACACCCA: -0.0731
CTTTACGA: 0.0831
AACTTCTG: -0.0873
ACGAGGTC: -0.0581

Repeated from above (set 3):
AAGCAGAUGACAGAAAUGGUUUCAGCAGUUUGUGCUGUAACCAUGCCUAGAGCAAGAAACCUGCUCAGUUUUAUAAGCUCCCUUCCCAACCAAAAUGGCUUAUCGUCAUU: 0.246
CAGCACAAAUAAGAUGUUCAAGUGAGCCAGAAGCAAGAAGAGCCAUUUUAGUCUUCAUAGCUAUUGGCUAAGAGAGAUAAUGAGCUGAUGGUCUAUUUUAACCUUGAAAG: 0.444
UGAGUGUGAUCAAAUCUAGUCUCACUCCCACUUUUUAGUCUCACUCCUACUUUUGUCCACCACCCCUGCCUCCUGGAUCUUCUCCCACUUUUUUUUUCAGCUUUAGGACC: 1.06
CAUUUUAAUUACUUGCAAAUUAAGUUACCACAGACUCUGUAGUGUGUAAAUGUUGACAAGGAAUUGGAUCACAAUCAUGUAGCAGAAUGGCACCCAGACCACUGCCCACC: 0.411
